Experimental data of several laboratories.
Lines come from different studies, so protocols differ. Values joined by “and” are separate records of one study, mostly repeats; a detail may differ. ± gives the spread as reported.
Sequence of UniProt Q9UBN7 (whole entry, looked up): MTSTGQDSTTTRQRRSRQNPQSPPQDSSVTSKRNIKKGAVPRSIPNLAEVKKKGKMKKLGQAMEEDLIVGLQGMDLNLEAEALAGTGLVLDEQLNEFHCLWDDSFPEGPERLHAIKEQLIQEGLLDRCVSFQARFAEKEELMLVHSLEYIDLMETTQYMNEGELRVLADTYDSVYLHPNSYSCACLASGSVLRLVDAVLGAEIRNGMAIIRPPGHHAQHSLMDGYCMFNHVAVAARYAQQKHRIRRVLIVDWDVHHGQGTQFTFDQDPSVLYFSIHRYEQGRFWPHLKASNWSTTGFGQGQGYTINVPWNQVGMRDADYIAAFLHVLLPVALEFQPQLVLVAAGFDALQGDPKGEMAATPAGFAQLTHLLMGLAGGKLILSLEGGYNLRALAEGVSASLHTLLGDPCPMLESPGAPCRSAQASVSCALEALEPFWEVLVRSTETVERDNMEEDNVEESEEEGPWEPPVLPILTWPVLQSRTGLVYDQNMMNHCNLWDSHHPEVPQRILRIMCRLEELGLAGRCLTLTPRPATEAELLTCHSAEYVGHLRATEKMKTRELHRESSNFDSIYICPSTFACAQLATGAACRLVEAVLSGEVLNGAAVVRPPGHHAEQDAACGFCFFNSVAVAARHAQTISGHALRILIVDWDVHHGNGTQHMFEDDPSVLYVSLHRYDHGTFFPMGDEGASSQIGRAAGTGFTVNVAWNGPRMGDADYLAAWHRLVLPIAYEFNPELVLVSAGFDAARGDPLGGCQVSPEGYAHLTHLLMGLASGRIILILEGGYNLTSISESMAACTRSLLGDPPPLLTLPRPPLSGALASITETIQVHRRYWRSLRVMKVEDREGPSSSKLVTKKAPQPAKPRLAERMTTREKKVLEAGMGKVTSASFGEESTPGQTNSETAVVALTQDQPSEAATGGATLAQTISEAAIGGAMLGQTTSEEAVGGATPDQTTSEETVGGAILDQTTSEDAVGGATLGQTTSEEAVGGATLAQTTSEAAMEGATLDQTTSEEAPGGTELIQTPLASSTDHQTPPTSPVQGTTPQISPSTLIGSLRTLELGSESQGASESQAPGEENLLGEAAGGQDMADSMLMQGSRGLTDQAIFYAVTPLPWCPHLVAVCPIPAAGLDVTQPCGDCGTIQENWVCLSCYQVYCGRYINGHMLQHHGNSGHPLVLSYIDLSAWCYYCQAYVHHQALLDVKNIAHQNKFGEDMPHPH
Sequence of UniProt Q92995 (whole entry, looked up): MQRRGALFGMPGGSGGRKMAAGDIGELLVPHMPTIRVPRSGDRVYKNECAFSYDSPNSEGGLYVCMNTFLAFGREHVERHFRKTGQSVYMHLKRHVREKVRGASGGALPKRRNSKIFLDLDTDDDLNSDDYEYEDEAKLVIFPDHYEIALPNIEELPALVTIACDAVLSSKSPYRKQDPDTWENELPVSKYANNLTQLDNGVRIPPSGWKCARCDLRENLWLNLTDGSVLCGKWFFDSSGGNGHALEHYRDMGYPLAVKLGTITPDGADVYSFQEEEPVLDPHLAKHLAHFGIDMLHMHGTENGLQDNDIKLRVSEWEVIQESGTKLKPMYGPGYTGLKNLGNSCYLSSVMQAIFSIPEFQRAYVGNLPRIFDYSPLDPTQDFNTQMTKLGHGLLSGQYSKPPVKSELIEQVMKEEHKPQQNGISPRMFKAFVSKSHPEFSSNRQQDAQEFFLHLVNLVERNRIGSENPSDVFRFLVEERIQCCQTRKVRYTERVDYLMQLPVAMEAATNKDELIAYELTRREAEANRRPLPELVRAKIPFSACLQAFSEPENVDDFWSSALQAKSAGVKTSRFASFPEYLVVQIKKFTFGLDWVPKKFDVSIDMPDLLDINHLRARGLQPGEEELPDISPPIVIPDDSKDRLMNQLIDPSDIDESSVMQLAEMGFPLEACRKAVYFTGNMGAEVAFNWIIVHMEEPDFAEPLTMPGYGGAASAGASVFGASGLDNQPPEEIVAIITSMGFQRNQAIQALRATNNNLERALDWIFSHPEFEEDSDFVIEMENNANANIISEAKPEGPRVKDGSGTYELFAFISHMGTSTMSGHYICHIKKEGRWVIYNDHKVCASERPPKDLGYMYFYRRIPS

`Cc1ccc(-c2cc3ccccc3c(N)n2)cc1`: “early apoptotic cells” 3.2% (RS4;11; annexin V-FITC/PI flow cytometry, measured: annexin V+ PI-; 5.0 µM, 72 h).
`C=Cc1c2[n-]c(c1C)/C=c1\[n-]/c(c(C)c1C=C)=C\c1[n-]c(c(CCC(=O)O)c1C)/C=c1\[n-]c(c(C)c1CCC(=O)O)=C2.[Sn+4]` has a fold change of 2.96 (SH-SY5Y; RNA-seq, measured: UBASH3B mRNA; 5 µM, 5 h; relative to: untreated cells).
For `CC(C)C[C@@H](C=O)NC(=O)[C@H](CC(C)C)NC(=O)[C@H](CC(C)C)NC(=O)OCc1ccccc1`, “polyubiquitinated FLuc level” read 1.63 (HEK293 with FLuc reporter; FLAG-ubiquitin immunoprecipitation; concentration not given, 6 h, unit not given; relative to: mock).
`CCn1cc(-c2cc(Cn3ccnc3)cc3c2CCN([C@H](c2cc(OC)ccn2)C2CC2)C3=O)c(C(F)(F)F)n1` has an EC50 of 1.06 µM (769-P; cell growth, inhibitor; 120 h).
With `[Cl-].[Cl-].[Os+2].c1cnc2c(c1)ccc1cccnc12.c1cnc2c(c1)ccc1cccnc12.c1cnc2c(c1)ccc1cccnc12` the phototherapeutic index was 1 (SK-MEL-28; cell viability, resazurin; dark, 1% O2 hypoxia; relative to: dark EC50 over green EC50).
`CCOc1cc([C@@H](CS(C)(=O)=O)N2C(=O)c3cccc(NC(C)=O)c3C2=O)ccc1OC`: “cAMP level difference” -2.64 (PBMC; MSD; 10 µM, unit not given, added: PGE2; relative to: DMSO).
For `O=C(/C=C/C=C/C=C/C1CCCCC1)NC1=C[C@@](O)(/C=C/C=C/C=C/C(=O)NC2=C(O)CCC2=O)[C@@H]2O[C@@H]2C1=O`, the GI50 was 15.9 µM (COLO-829; cell growth, CellTiter-Glo; 78 h).
Under “mean growth percentage”, `c1ccc2cc(Cn3c[n+](Cc4ccc5ccccc5c4)c4ccccc43)ccc2c1` is recorded as 1.29% (NSCLC cell lines; NCI60 one-dose screen; 10 µM).
The TGI of `CCCc1n(Cc2ccc3ccccc3n2)cc[n+]1Cc1ccc2ccccc2c1.[Cl-]` is reported as at most 27.6 µM (NSCLC cell lines; upper end of range).
For `Cc1cc2c(cc1C)[n+](Cc1ccc3ccccc3n1)cn2Cc1ccc2ccccc2n1`, “mean growth percentage” read 11.8% (NSCLC cell lines; NCI60 one-dose screen; 10 µM).
Under “log2 fold change”, `CCCCc1nc(Cl)c(CO)n1Cc1ccc(-c2ccccc2-c2nn[nH]n2)cc1` is recorded as -4.29 (human PBMC; RNA-seq, measured: HS3ST2 mRNA; 10 µg/mL, 24 h; relative to: untreated control).
`O=C(O)Cc1nc2ccccc2[nH]1` gave a Kd of over 1000 µM (Protein deacetylase HDAC6, ZnF-UBD domain (HDAC6, Homo sapiens, UniProt Q9UBN7)).
`CC[C@H](C(=O)N1CCCC[C@H]1C(=O)O[C@H](CCc1ccc(OC)c(OC)c1)c1cccc(OCC(=O)NCC(CNC(=O)COc2cccc([C@@H](CCc3ccc(OC)c(OC)c3)OC(=O)[C@@H]3CCCCN3C(=O)[C@@H](CC)c3cc(OC)c(OC)c(OC)c3)c2)CN(C)C)c1)c1cc(OC)c(OC)c(OC)c1` gave an LDH release of 77.2% and 76.5% and 79.2% (THP-1 expressing FKBP-caspase-4; concentration not given).
For `COc1cc(C(=O)O[C@@H]2CCCOc3cc(cc(OC)c3OC)C(=O)NCCCN3CCCN(CC2)CC3)cc(OC)c1OC`, the specific killing was 55.4% and 91.8% and 66.8% (CMV-specific PBMC; concentration not given, added: ATP, NLVPMVATV-pulsed T2 cells; relative to: control without ATP).
Under inhibition, `O=C(O)c1cccnc1Nc1cccc(C(F)(F)F)c1` is recorded as “no inhibition” (MCF7 TEAD luciferase reporter; reporter gene; concentration not given).
`COc1ncccc1CN[C@H]1[C@@H](C)[C@@H]1c1ccccc1` (relative stereo) gave a GI50 of over 50 µM (THP-1 wild type cells; MTS; 72 h).
Under “Bliss synergy score”, `COc1cc2ncnc(Nc3ccc(Oc4ccccc4)c(C)c3C)c2cc1OC.Cl` is recorded as 48.3% (SW1417 (BRAF V600E); cell viability; concentration not given, 72 h, added: trametinib; direction not given).
With `CC(C)NCC(O)c1ccc(O)c(O)c1` (centres unmarked) the sarcomere length was 1.8 µm (mouse ventricular cardiomyocytes; dose not given, 0.067 s).
With `CC/C(=C(\c1ccc(O)cc1)c1ccc(OCCN(C)C)cc1)c1ccccc1` the Emax was 1.1% (MCF7 3xERE-luc, steroid-deprived; ERE luciferase reporter, agonist; relative to: vehicle).
`Clc1nc(NCc2ccco2)c2[nH]cnc2n1` has a ΔPSI of -0.209 (iPSC-derived cardiomyocytes; RNA-seq, measured: ADGRD1 chr12 exon ending 130982063; unit not given; relative to: DMSO minus compound).
The growth of `CCc1n(Cc2ccc3ccccc3n2)cc[n+]1Cc1ccc2ccccc2c1` is reported as 7.64 to 16% (NSCLC cell lines; NCI60 one-dose; 10 µM, average over cell lines).
`c1cnc2c(c1)ccc1cccnc12` — result for “IL-10 mRNA level”: “decreased” (HEK293T; 25 µg/mL; relative to: albendazole).
For `S=C(Nc1ccccc1)Nc1nccs1`, the AC50 was 0.061 µM (differentiated LUHMES MT1G-HiBiT neurons; measured: MT1G; 24 h).
With `C=CCn1c(=O)c2cnc(Nc3ccc(N4CCN(C)CC4)cc3)nc2n1-c1ccc2c(n1)[C@@](O)(CC)CC2` the γH2AX-positive cells was 18.7% (NCI-H1048; flow cytometry; 1 µM, 24 h).
With `COc1ccc(-n2nc(C(C)=O)s/c2=N\N=C(/C)c2ccc(NC(=O)c3ccccc3)cc2)cc1` the viability was 36% (MCF7; 0.156 µM).
With `COc1cc(/C=C/C(=O)N2CCC=CC2=O)cc(OC)c1OC` the mRNA level was 74.6 ± 15.6% (MDA-MB-468; qRT-PCR, measured: GLUT1; 30 µM, 6 h; relative to: time zero).
With `CCN(CC)S(=O)(=O)Nc1cccc(-c2ccc3c(NC(=O)C4CC4)n[nH]c3c2)c1` the LRP6-positive cells was 55.8% and 56.4% (HEK293T; flow cytometry, measured: surface LRP6; concentration not given, 8 h, added: WNT3A).
`Nc1cccc2c1C(=O)N(C1CCC(=O)NC1=O)C2=O` (centres unmarked) — result for “surface marker level”: 186% (RPMI-8226; flow cytometry, measured: CD162; concentration not given; relative to: comparator compound alone).
For `N#Cc1ccc(Oc2ccc3c(c2)COB3O)cc1`, “cAMP level difference” read -1.75 (PBMC; MSD; 0.001 µM, unit not given, added: PGE2; relative to: DMSO).
`CCn1cc(-c2cc(Cn3ccoc3=N)cc3c2CCN([C@@H](C)c2cc(OC)ccn2)C3=O)c(C(F)(F)F)n1` has an EC50 of 0.0256 µM (KP-4; cell growth, inhibitor; 120 h).
`Nc1cccc2c1CN(C1CCC(=O)NC1=O)C2=O` (centres unmarked) has a viability of 85% (bone marrow CD138+ myeloma cells; XTT; 1 µM, phenol red-free RPMI).
With `C=CC(=O)N1CCC([C@@H]2CCNc3c(C(N)=O)c(-c4ccc(Oc5ccccc5)cc4)nn32)CC1` the maximum inhibition was 84.8% (TMD8 wild-type; calcium flux, FLIPR; 4 h preincubation, added: anti-IgM).
`CCCN1CCN(c2ccc3[nH]c(-c4ccc5[nH]c(-c6cc(OC)c(OC)c(OC)c6)nc5c4)nc3c2)CC1` has a growth percent of 59.6% (SF-539; SRB; 10 µM, 48 h).
`CC/C(=N\NC(=O)C(C)Nc1ccccc1)c1ccc(O)c(C)c1O` (centres unmarked): “TAZ band intensity” 0.17 ± 0.01 (SK-OV-3; Western blot; 10 µM, 3 h, 3D gellan gum culture, unit not given; relative to: DMSO).
`COc1cc2c(cc1OC)-c1cc3ccc(OC)c(OCCN)c3c[n+]1CC2.[Cl-]`: “PD-L1 mRNA level” “no effect” (PC-9, LLC, H460; qRT-PCR; 10 µM, 24 h).
`Cc1cc(NC(=O)c2cccc(NC(=O)/C=C/CN(C)C)c2)ccc1Nc1nccc(-c2cccnc2)n1` gave a reporter activity of 0.224 (AP1 reporter HEK293; AP1 reporter gene, inhibitor; 10 µM, 6 h, compound washed out, unit not given, added: PMA; relative to: PMA alone).
`CCOc1ccccc1C1CC(c2ccccc2)Nc2nc(N)nn21` (centres unmarked) has a maximum inhibition of 67% (MEF with TRE-FLAG-LMNB1; LMNB1 level, high-content screening; 250 µM).
`Cc1cc(Nc2ncc(Cl)c(Nc3ccccc3S(=O)(=O)C(C)C)n2)c(OC(C)C)cc1C1CCNCC1` — result for “log2 fold change”: -1.83 (CLB-GE; phosphoproteomics LC-MS/MS, measured: EIF4B phosphorylation; 200 nM, 60 min; relative to: untreated).
Under “pathway activation z-score”, `Cn1cc(Nc2nccc(-c3ccc4c(c3)CN(C3COC3)CC[C@H]4NC(=O)c3cn(C(C)(C)C)nn3)n2)cn1` is recorded as 4.49 (mouse splenic B cells; measured: NF-κB signalling; 30 mg/kg, IgD-activated in vivo; relative to: vehicle, direction not given).
For `C=CC(=O)Nc1cccc(Oc2nc(Nc3ccc(N4CCN(C)CC4)cc3)nc3ccoc23)c1`, the maximum inhibition was 54.3% (TMD8 wild-type; calcium flux, FLIPR; 1 h preincubation, added: anti-IgM).
The Kd of `O=C(O)CCC1=Nc2cccc3cccc(c23)N1` is reported as over 1000 µM (Ubiquitin carboxyl-terminal hydrolase 13, ZnF-UBD domain (USP13, Homo sapiens, UniProt Q92995)).
For `CC/C(=N\NC(=O)NCc1cccc(O)c1)c1ccc(O)c(C)c1O`, “TAZ protein level” read 1.12 ± 0.5 (SK-OV-3; Western blot; 3D culture in gellan gum; 5 µM, 1 h, unit not given; relative to: β-actin).
For `CCc1n(Cc2ccc3ccccc3n2)cc[n+]1Cc1ccc2ccccc2n1`, the growth was 25 to 31.8% (NSCLC cell lines; NCI60 one-dose; 10 µM, average over cell lines).
`Cn1cc(-c2ccc(-c3cncc(Cl)c3N3CCC4(CCNC4=O)CC3)cc2)cn1` — result for “fold change in expression”: -2 (COLO 205; microarray, measured: c-Myb; concentration not given, 2 h; relative to: untreated cells).
With `C[C@H]1CN(C2COC2)CCN1c1ccc(Nc2cc(-c3ccnc(N4CCn5c(cc6c5CC(C)(C)C6)C4=O)c3CO)cn(C)c2=O)nc1` the maximum inhibition was 94.3% (TMD8 wild-type; calcium flux, FLIPR; 4 h preincubation, added: anti-IgM).
With `CCCCN1C[C@H](O)[C@@H](O)[C@@H](O)[C@H]1CO` the IC50 was 16 µM (sample B patient fibroblasts; GlcCer level lowering, LC-MS/MS, measured: GlcCer d18:1/16:0; 216 h).
`COc1cnc2cccc(N3CCc4c(cc(Cn5ccnc5C)cc4-c4cn(C)nc4C(F)(F)F)C3=O)c2c1` has an EC50 of 4.88 µM (Lu-99; cell growth, inhibitor; 120 h).

Some of these lines once more:
`COc1cc2c(cc1OC)-c1cc3ccc(OC)c(OCCN)c3c[n+]1CC2.[Cl-]`: “PD-L1 mRNA level” “no effect” (PC-9, LLC, H460; qRT-PCR; 10 µM, 24 h).
`Cc1cc(NC(=O)c2cccc(NC(=O)/C=C/CN(C)C)c2)ccc1Nc1nccc(-c2cccnc2)n1` gave a reporter activity of 0.224 (AP1 reporter HEK293; AP1 reporter gene, inhibitor; 10 µM, 6 h, compound washed out, unit not given, added: PMA; relative to: PMA alone).
`CCOc1ccccc1C1CC(c2ccccc2)Nc2nc(N)nn21` (centres unmarked) has a maximum inhibition of 67% (MEF with TRE-FLAG-LMNB1; LMNB1 level, high-content screening; 250 µM).
